# Measurements pooled from the literature.
# Each numbered part is a random draw from the data of one study; scales do not carry over between parts.

# Study 1
# Target: Histone acetyltransferase KAT6A, winged helix 2, GST fusion (KAT6A, Homo sapiens, UniProt Q92794, residues 85-181)
# Technique: protein binding microarray
# Molecule type: double-stranded DNA, one strand shown
# Matrix: in vitro
# Tested at: not given
# Notes: 8-mer, flanks averaged, mean of 2 arrays, mostly near background
# Relative to: not given
# Reading: higher = stronger binding
# Residues (chain): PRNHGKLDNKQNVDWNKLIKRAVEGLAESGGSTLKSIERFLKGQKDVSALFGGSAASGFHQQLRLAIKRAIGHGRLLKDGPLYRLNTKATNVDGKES
Strand,E-score
AAGCGTAG,-0.0158
CGGACGCC,0.184
CCTATGGC,0.0213
CTCCATAC,-0.105
AGGTATAT,-0.064
AACACCTA,-0.161
AATCTCCG,-0.0193
ACCTGCCG,0.201
TAAACAAA,-0.11
GTCGGGTA,-0.0279
GACCGTAC,-0.239
ATCTACGC,0.162
AGGTGGGG,0.0981
GGAGCAAC,-0.0129
CAACTGAG,0.141
AACTACTA,-0.0116
AAAGTGAT,0.026
ATGAGGTC,0.0448
AGTGGCTG,0.0437
CCACTACC,-0.146
AACGCTCC,-0.106

# Study 2
# Target: RING finger protein unkempt homolog, zinc fingers 1-6, GST-SBP tag (UNK, Homo sapiens, UniProt Q9C0B0, residues 30-357)
# Sequence of UniProt Q9C0B0 (30-357, looked up): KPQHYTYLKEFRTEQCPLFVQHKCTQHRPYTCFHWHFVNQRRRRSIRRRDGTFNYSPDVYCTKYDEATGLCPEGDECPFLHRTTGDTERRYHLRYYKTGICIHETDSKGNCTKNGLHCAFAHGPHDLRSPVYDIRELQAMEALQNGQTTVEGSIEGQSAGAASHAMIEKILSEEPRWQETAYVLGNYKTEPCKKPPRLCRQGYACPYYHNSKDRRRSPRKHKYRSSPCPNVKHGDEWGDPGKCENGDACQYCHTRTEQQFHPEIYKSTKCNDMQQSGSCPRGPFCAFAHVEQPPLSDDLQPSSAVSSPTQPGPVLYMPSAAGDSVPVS
# Technique: RNA Bind-n-Seq
# Molecule type: RNA
# Matrix: in vitro
# Tested at: not given
# Notes: RNA with constant flanks, human and mouse sites, ends assumed
# Relative to: input RNA pool
# Reading: higher = stronger binding
Strand,bound/input enrichment
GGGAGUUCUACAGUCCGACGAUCGACAACUGCAGAGAAGUGAUCAUCACACCAAACUCUGCAUGGGGCGGAGAAGGCAGCCUUGGAUGUGGCAUUGGCUAUGGUUAUUUGCACCGAAUACCUACACGCCCCUUUGAAGAAGGACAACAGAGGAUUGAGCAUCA,0.172 ratio
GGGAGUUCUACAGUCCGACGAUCCUGCCGACUGCAUUUAGUCUGGUCUCUUAACAGUUGCUUUCCUUGUCUGAUUCCCAAGUUUAGCAUUUUCAAAUUCAGAGUUCACAGAACACUUCUGGGUCUAAGCUUCCUUAAGGGGGACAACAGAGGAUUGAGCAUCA,2.71 ratio
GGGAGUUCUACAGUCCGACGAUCUUCUAAAAUGGGGCCAUGACGGGAACUGUGGUUGUAACCAAGCUGCUUGCCUGCAUCGAUUAACUCUCUCUGGGUUCCUGGGUGACUUCAUAUGAUGAGUGGAAACUACUAGUUGGUUUACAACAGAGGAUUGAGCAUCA,0.203 ratio
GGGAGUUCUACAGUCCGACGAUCGACAUUGCAGAGCAUGCUUUGAAAAAUUCUUUAGAAACAGAUAUUCCUACUGUGAAUAUUUUAGCUGAUGAAGAAUUCCUUCCCUUCCAAGAAAACACGUUUGACCUGGUGGUUAGCAGCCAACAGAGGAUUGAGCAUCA,0.772 ratio
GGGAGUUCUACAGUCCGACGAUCCAGCUACUGAAAUGCCGGGACACACCUUCAUACAGUGAGGGACGGUCACUCCAGCAUUGGCGGGUUGCUCAUCUGUAUUGAGUGCUGCGUUGUGCUCGUGUUGGUUGGUUUGGUCAGGGACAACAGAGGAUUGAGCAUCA,0.227 ratio
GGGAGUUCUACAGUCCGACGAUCAUCCUGAACGAGGAUAACUCUGUUGUUUUGGGUAUUUCAUCUCGGGAAGGAGAGGAGGUUAUGUUUAAAACUCCUGUGUCAAUUACUGAACAUCCCAAAAUCAAUGAGUGGCUCACAUUGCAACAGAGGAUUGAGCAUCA,0.221 ratio
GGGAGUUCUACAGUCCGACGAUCAGAGUGAAAAUUCUUCGAGAUUAUGCUGGCCUUAUACUUUUCCUAGAAGAGGAUCACUACUUAGCCCCAGACUUUUACCAUGUCUUCAAAAAGAUGUGGAAACUGAAGCAGCAAGAGUGCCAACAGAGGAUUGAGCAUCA,0.301 ratio
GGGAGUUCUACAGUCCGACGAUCGGACUGCAGAACGGCUCAGACUUGCAGUUCAUCGAGAUGCAGAGAGAUGCCAAUAGACAAAUUAGUGAAUACAAAUUCAAGCUUUCGAAAGCAGAACAAGACAUAGCUACCUUGGAACAACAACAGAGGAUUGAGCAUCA,4.88 ratio

# Study 3
# Target: Sal-like protein 4, full length isoform B (SALL4, Homo sapiens, UniProt Q9UJQ4-2, residues 1-616)
# Technique: universal PBM
# Molecule type: double-stranded DNA, one strand shown
# Matrix: in vitro
# Tested at: not given
# Notes: 8-mer, flanks averaged, mean of replicates
# Reading: higher = stronger binding
Strand,E-score
CCCAGCAA,-0.0882
AGATGCCA,-0.059
GTGCGCAC,-0.108
GACCCCGA,-0.173
CCATCAGC,-0.151
ATCCTTGG,-0.0411
ACCACGTA,-0.0534
GCATCAGA,0.143
GTGCAAAC,0.0269
CCTTAATA,0.239
GGAAGATA,0.157
ACAGGCGT,-0.121
AGTGAAAC,0.0849
AATATAGG,0.286
CTCGTGCC,-0.341
GGAGCCAC,-0.307
ACACTGAA,0.17
CCAAAGAC,-0.14
GTTGCGAA,-0.0609
CACAGGTG,-0.118
AGATCAGC,-0.238

# Study 4
# Target: Ras GTPase-activating protein-binding protein 1, full length (G3BP1, Homo sapiens, UniProt Q13283)
# Sequence of UniProt Q13283 (whole entry, looked up): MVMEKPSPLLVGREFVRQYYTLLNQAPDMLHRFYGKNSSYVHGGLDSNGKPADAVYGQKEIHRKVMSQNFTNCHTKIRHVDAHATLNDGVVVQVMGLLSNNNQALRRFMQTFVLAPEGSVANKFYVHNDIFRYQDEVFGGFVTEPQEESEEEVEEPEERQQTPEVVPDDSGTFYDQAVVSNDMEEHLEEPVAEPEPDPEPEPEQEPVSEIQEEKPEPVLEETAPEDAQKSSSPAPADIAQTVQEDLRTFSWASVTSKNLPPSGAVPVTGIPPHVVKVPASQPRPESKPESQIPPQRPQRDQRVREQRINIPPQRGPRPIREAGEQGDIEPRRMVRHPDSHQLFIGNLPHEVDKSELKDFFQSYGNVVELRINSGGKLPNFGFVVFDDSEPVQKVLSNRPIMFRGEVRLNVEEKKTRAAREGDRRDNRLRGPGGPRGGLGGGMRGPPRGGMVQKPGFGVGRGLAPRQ
# Technique: RNA Bind-n-Seq
# Molecule type: RNA
# Matrix: in vitro
# Tested at: 200 nM
# Notes: whole 134-nt RNA, ends assumed
# With: 150 mM LiCl
# Relative to: input library
# Reading: higher = stronger binding
# All molecules: 7-deaza-guanosine replaces G
Strand,log2 enrichment
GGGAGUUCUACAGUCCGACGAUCCACAGACAACACGCACCCACACAGACACAGAGGGAAGGGGUUGGGAUGGGGAGAGGGUGCACAGCAGGGCGGGGUAGGACCCCAGCCCCUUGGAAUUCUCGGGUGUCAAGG,-0.0867
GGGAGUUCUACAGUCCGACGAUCUCCUGUGCUACACAUCGUAUGUACCGAAUCGGGGUUUUUUGGUUUUUUGGGUUUUUUGGGAAAGUAUUAUGUUACGCCGUUCGGAUCUGCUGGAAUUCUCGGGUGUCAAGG,-0.16
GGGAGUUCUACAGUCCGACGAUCCGCAGACAACACGCACCCACACAGACACAGAGGGAAGGGGUUGGGAUGGGGACAGGGUGCACAGCAGGGCGGGGUAGGACCCCAGCCCCUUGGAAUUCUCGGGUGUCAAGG,0.293
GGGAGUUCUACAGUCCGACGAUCCACAGACAACACGCACCCACACAGACACAGAGGGAGGGGGUUGGGAUGGGGACAGGGUGCACAGCAGGGCGGGGUAGGACCCCAGCCCCUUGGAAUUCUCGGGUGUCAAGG,-0.851
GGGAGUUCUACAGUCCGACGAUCGCUUUGCCUUCACUUAUUUCUUUGCUUUUUAAAAACUAUUUGUAAUGUAAUUUUAAUGCAUUUUUUACAGGCCCAGUAAUGGUUAAAUACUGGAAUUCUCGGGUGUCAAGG,0.453
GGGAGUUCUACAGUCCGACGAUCCACAGACAACACCCACCCACACAGACACAGAGGGAAGGGGUUGGGAUGGGGACAGGGUGCACAGCAGGGCGGGGUAGGACCCCAGCCCCUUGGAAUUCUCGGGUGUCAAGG,-1.25
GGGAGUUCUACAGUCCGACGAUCGUCCUGUGCUACACAUCGUAUGUACCGAAUCGGAAAAAGGGAAAAAGGGGAAAAAGGGAAAGUAUUAUGUUACGCCGUUCGGAUCUGCACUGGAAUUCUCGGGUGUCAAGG,-0.163
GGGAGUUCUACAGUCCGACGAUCGCAGGAAGUAAAAACAAAUGGAAAUGCUUCGGAUAGUGGCAGGGGUGGGGGUUGCUAAGGAAAGGGUGGGAUGGGAGUGGCUAAAGAGUUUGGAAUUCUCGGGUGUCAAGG,0.112

# Repeated from above (study 1):
Strand,E-score
CCACTACC,-0.146
GTCGGGTA,-0.0279
TAAACAAA,-0.11
AAAGTGAT,0.026
AGGTGGGG,0.0981
ACCTGCCG,0.201
ATCTACGC,0.162
CTCCATAC,-0.105
